Experimental data pooled from the literature.
Numbered parts are unrelated; each lists some results of a single study. Changes are numbered by the printed parent chain.

Set 1
Target: Sal-like protein 4, full length isoform A (SALL4, Homo sapiens, UniProt Q9UJQ4, residues 1-1053)
UniProt Q9UJQ4, sequence (whole entry, looked up): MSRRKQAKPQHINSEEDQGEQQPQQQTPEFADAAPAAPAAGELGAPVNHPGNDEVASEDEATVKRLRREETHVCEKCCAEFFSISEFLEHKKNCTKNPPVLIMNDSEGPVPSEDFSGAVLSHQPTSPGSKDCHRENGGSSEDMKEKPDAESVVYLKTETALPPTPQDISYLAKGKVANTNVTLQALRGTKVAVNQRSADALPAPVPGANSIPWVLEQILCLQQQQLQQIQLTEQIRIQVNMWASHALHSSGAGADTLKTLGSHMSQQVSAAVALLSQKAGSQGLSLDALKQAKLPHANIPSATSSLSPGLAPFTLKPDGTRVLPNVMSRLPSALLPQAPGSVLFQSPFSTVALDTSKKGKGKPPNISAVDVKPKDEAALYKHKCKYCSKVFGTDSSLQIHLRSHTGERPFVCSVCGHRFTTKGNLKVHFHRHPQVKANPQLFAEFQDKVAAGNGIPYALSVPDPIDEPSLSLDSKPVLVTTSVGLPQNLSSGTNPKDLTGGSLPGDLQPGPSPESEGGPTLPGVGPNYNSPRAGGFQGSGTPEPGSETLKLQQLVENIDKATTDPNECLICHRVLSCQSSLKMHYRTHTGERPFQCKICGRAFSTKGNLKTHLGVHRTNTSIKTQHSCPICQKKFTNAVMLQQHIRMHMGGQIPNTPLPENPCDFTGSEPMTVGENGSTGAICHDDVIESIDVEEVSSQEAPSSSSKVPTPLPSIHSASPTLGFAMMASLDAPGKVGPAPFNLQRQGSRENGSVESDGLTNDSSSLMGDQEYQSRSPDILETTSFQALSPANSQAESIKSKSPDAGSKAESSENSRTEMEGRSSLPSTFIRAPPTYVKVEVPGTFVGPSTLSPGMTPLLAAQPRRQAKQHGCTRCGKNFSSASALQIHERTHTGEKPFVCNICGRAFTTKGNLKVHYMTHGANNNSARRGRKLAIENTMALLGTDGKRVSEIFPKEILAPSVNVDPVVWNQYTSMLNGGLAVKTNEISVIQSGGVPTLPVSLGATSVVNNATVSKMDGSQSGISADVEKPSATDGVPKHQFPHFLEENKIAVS
Method: universal PBM
Molecule type: double-stranded DNA, one strand shown
Matrix: in vitro
Tested at: 600 nM
Notes: 8-mer, flanks averaged, mean of replicates
Reading: higher = stronger binding
With `ACATTTGC` the E-score was 0.0419.
For `GGGAAGGA`, the E-score was -0.154.
The E-score of `CTACCAGA` is reported as 0.00384.
The E-score of `ACTCGGCA` is reported as -0.206.
For `CCCCTAGC`, the E-score was -0.289.
The E-score of `CGGAGCAG` is reported as -0.235.
The E-score of `CAGCTATA` is reported as 0.0786.
`CACCGGTG` gave an E-score of -0.357.
The E-score of `AACCCCGC` is reported as -0.231.
For `AGTATCTG`, the E-score was -0.0397.
With `GTCTCCAA` the E-score was 0.102.
`AACTTTTC` gave an E-score of 0.119.
`CTCCAGTC` has an E-score of -0.17.
The E-score of `GGCCGTAC` is reported as -0.159.
With `CCGAGTAG` the E-score was -0.0643.
With `CCGCTGCG` the E-score was -0.352.
The E-score of `CCTGGCCA` is reported as -0.263.
`AACCAAGG` gave an E-score of 0.0105.
For `AAATAGCA`, the E-score was 0.239.
With `ACCTGCAA` the E-score was -0.12.

Set 2
Target: CCNB2, cyclin fold, Cln2 fusion (human)
Method: yeast growth competition, sequencing
Matrix: yeast
Notes: weak parent motif
Reference: not given
Reading: higher = stronger binding
Starting sequence: CDKN1A docking peptide (human); SKACRRLFGPVDS
`SKACRSLFGPVDS [R6S]`: “normalised enrichment score” 0.0339.
`SNACRRLFGPVDS [K2N]` — result for “normalised enrichment score”: 0.219.
For `SKACRRLFGPVWS [D12W]`, “normalised enrichment score” read 0.55.
Under “normalised enrichment score”, `SKACRRLFGPPDS [V11P]` is recorded as -0.145.
`SKACRELFGPVDS [R6E]`: “normalised enrichment score” -0.257.
For `SKACRRLFGPHDS [V11H]`, “normalised enrichment score” read 0.221.
`SKACRRLFGVVDS [P10V]`: “normalised enrichment score” 0.0691.
For `SKACRRLFGPVVS [D12V]`, “normalised enrichment score” read 0.093.
Under “normalised enrichment score”, `SKMCRRLFGPVDS [A3M]` is recorded as 0.766.
`SKACRRLFGMVDS [P10M]` — result for “normalised enrichment score”: -0.0748.
`SKACYRLFGPVDS [R5Y]` — result for “normalised enrichment score”: 0.124.
Under “normalised enrichment score”, `SKACRRLFGPMDS [V11M]` is recorded as 0.0224.
For `SKACRRLFGQVDS [P10Q]`, “normalised enrichment score” read 0.136.
Under “normalised enrichment score”, `SKACRRLFDPVDS [G9D]` is recorded as -0.108.

Set 3
Target: PABPC1L2, full length, GST fusion (mouse, UniProt A0ABA7IW68)
Method: RNAcompete
Molecule type: RNA
Matrix: in vitro
Tested at: 20 nM
Notes: 7-mer, probes averaged, single round
Reference: mean of 7-mers
Reading: higher = stronger binding
Residues (chain): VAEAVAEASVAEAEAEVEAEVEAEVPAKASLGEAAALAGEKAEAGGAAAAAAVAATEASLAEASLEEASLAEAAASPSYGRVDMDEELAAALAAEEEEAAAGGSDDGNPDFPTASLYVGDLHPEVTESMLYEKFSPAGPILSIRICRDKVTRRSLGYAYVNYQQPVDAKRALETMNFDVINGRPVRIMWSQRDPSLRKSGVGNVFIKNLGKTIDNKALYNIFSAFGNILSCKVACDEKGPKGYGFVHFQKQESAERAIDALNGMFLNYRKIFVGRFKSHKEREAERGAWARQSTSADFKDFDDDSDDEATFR
With `GAAAUAA` the 7-mer Z-score was 1.57.
With `UCACCCG` the 7-mer Z-score was -0.407.
`GUUCCAG` gave a 7-mer Z-score of -0.141.
`UGCCCGU` gave a 7-mer Z-score of -0.302.
For `CCUUGGG`, the 7-mer Z-score was -0.293.
`GUUUGCU` gave a 7-mer Z-score of -0.456.
`UUAUGCG` has a 7-mer Z-score of -0.2.
`UUGGUAU` gave a 7-mer Z-score of 0.0243.
The 7-mer Z-score of `CUCAGGA` is reported as -0.0808.
`CCGUCGA` gave a 7-mer Z-score of -0.322.
`AGUUUCG` gave a 7-mer Z-score of -0.396.
`AGAUAGC` gave a 7-mer Z-score of -0.24.
With `CCGGAGG` the 7-mer Z-score was -0.0464.
For `UAGUCUU`, the 7-mer Z-score was -0.358.
For `GCCGCCA`, the 7-mer Z-score was -0.24.
The 7-mer Z-score of `CGCAGUU` is reported as -0.264.
The 7-mer Z-score of `CGGCGCC` is reported as -0.461.
The 7-mer Z-score of `CUGCCUC` is reported as -0.342.
For `CGCCACC`, the 7-mer Z-score was -0.217.
With `UAAAGCU` the 7-mer Z-score was 0.61.
`AUGGCAG` has a 7-mer Z-score of 0.222.
`UCUAGAA` gave a 7-mer Z-score of 0.0424.

Set 4
Target: RNA binding protein fox-1 homolog 2, RRM domain, GST-SBP tag (RBFOX2, Homo sapiens, UniProt O43251-10, residues 100-194)
Method: RNA Bind-n-Seq
Molecule type: RNA
Matrix: in vitro
Tested at: 365 nM
Notes: natural RNA segment, single round, ends assumed
Reference: no-protein control
Reading: higher = stronger binding
`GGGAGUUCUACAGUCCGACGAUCAAGGUUAAGGUCGUGGCAGCAGAUGCCUAGCUUCUUAUUUAAAAAGUUGAGUGCACCCAGCCAUUUUCUGUUUUAAAGAUAGGUUAAUAUAGCCAAGAGGGUCAUACAGCUGGAAUUCUCGGGUGCCAA` — result for “RBNS enrichment (R)”: 0.375.
`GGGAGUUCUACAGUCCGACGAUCUUGAAAAAAUGUUCUAUAUGCAUUUAAUUCUGAAAUCAGUCUACCAAGGGGCUGCUAGUAUAUGUCAGACAUGAAAACUAUUUUAAAGCUGACUUUGUUGCCUUAUCUUGUGGAAUUCUCGGGUGCCAA`: “RBNS enrichment (R)” 0.4.
For `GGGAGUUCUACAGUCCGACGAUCUACUUGUUAGAGGACGGAAGAUUUGCUACAGUGGUCUAGAGUUAAAAUGUGCUCUUUAGUUGCCCAGCACAAGAACGUACCACUCACCUUUUGUAUUCAUAAGCUAAUAUUGGAAUUCUCGGGUGCCAA`, “RBNS enrichment (R)” read 0.44.
`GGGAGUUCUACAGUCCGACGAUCGCAAUAUACAGCCCCAGGUAGGGAGGGGAGAGUAUGAGGAGGGUGACUGGCAGCUUCUCCUCCAGACUCCUAGCCCCGAGGUGCUGAUGGAGAUGCUCAAGGCCAGCAAGUGGAAUUCUCGGGUGCCAA`: “RBNS enrichment (R)” 0.65.
Under “RBNS enrichment (R)”, `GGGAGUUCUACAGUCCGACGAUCGUGUUCUCAGCCCAGCCCUCCCUGAGAACCCACAUUUGGCUCGUAUGUAUGUGAGCACGUUGGGGUGCGCAUAAGCUAUCACCAUCUUCUUCUCUUCUAUCAUCCAAAUCUGGAAUUCUCGGGUGCCAA` is recorded as 0.361.
Under “RBNS enrichment (R)”, `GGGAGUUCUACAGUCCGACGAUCACACUUUGAUACUUCAAUUAUAUCGUGAAUGUUUUAUUUUGCUAAAUCAUGUGCCAUGUGUAGGCUGUUGUGUGUACACUGUGUCUAAGAGAAGAAGAAAAGAAAAAAAAUGGAAUUCUCGGGUGCCAA` is recorded as 0.561.
For `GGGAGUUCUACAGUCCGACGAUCCACCUUCCUCCCGAUUUGUUCACCUAUUUUGUGCUUUAAAUCUCAAUAAAAUACUUACUGAGGGAAAGGCUUGUUUUGAGUUUAUUGCAUAUGCCCACUUAGGACCAGAUUGGAAUUCUCGGGUGCCAA`, “RBNS enrichment (R)” read 0.494.
`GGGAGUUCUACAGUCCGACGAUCAGGACUCGGACGUGUUCGAGGAGGACACUCACCUGUGAGCGCCGGGCCACGGGCGCGAGACUGCCCGACGCCACGGCCCCGCGCCCCUCCCGGUCCUCCACGCGGACCACUGGAAUUCUCGGGUGCCAA`: “RBNS enrichment (R)” 0.431.
Under “RBNS enrichment (R)”, `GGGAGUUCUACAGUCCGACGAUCGCUUGUGUCAUGGGGAAACAGUUUCUCCCUCUACUCACAACACUAAAGGGAAAAAGGUGGAUUCAGAACUAUGACUUCAGGGCCCAGCAGUGUUGAUAGAGCAGCAUAUUUGGAAUUCUCGGGUGCCAA` is recorded as 0.645.
For `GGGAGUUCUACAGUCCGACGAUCCUGCUUUGCCUUGCUGCCUGUGCAAAUGUUGGACAAGCAGACACACUCACACUCGUCCCCAGCUUAGCACAGAGCUGGAGCGCCCAUUUCUGGAAUUUUCCGUUUGGGAAUGGAAUUCUCGGGUGCCAA`, “RBNS enrichment (R)” read 1.36.
`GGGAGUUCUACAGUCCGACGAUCUUUUUAAUUUAAAGGUUAAACUUGAAGAAAGUCUUUAUUCACGGUGCCAAAAUUCAUUUUUCUAACUCUGUGUGUUAGGAAAUAAUGAAAAAUAAAAUAAUUUAAAAUAAUGGAAUUCUCGGGUGCCAA`: “RBNS enrichment (R)” 0.735.
For `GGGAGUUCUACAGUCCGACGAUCGAGUGCUAGGUAGGAAUGGCCACAGUUUGAAGAGCUAGAAAUAGCCUUAGGUCGGGCUUCUGUUAUGUGCUUUCCAGAAGCAGUUUUUACAACUGUAGGUAAGGUUGUAAUGGAAUUCUCGGGUGCCAA`, “RBNS enrichment (R)” read 1.07.
